Measurements of several laboratories.
A part holds a random share of what one study measured. Substitutions count along the parent as printed.

Set 1 — target: CCND3, cyclin fold, Cln2 fusion (human); method: yeast growth competition, sequencing; matrix: yeast; notes: weak parent motif; relative to: not given; reading: higher = stronger binding
Starting sequence: MICAL3 docking peptide (human); LQLRRQLSFSEDS
Variant | normalised enrichment score
LQDRRQLSFSEDS [L3D] | 0.0993
LQLRRQLSNSEDS [F9N] | -0.252
LQLRNQLSFSEDS [R5N] | 0.316
LQLRRQLSFTEDS [S10T] | -0.0813
LQLRHQLSFSEDS [R5H] | 0.0406
LQLRRQLSFKEDS [S10K] | 0.0717
LQLPRQLSFSEDS [R4P] | 0.213
LQLRRQLSFSEVS [D12V] | 0.0613
LQLRRQSSFSEDS [L7S] | 0.0657
LQLRRHLSFSEDS [Q6H] | -0.226
LQLRRQLSHSEDS [F9H] | -0.153
LQLRRQLSFSELS [D12L] | 0.115
LQLLRQLSFSEDS [R4L] | -0.1
LQLRRQLSFSRDS [E11R] | 0.186
LQLRRQLSFEEDS [S10E] | 0.375
LQLGRQLSFSEDS [R4G] | -0.323
LQLRKQLSFSEDS [R5K] | 0.143
LQKRRQLSFSEDS [L3K] | -0.174
LQLRRCLSFSEDS [Q6C] | 0.26
LQLRRQLSKSEDS [F9K] | 0.469
LQLRRLLSFSEDS [Q6L] | 0.193
LQLRRQLSFSSDS [E11S] | -0.0824
LQLRRQLSFSERS [D12R] | 0.173
LQLRRQISFSEDS [L7I] | 0.192
LQLRRQLRFSEDS [S8R] | -0.0607

Set 2 — method: protein binding microarray; molecule type: double-stranded DNA, one strand shown; matrix: in vitro; concentration: not given; relative to: not given; reading: higher = stronger binding
Target: Histone acetyltransferase KAT6A, both winged helices, GST fusion (KAT6A, Homo sapiens, UniProt Q92794, residues 1-181)
Notes: 8-mer, flanks averaged, mean of 2 arrays, mostly near background
Construct (chain): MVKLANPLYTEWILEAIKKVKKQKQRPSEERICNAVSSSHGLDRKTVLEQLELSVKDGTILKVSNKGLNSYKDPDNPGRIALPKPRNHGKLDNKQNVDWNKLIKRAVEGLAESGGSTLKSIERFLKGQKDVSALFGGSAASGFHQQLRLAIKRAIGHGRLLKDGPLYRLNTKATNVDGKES
Oligonucleotide | E-score
ATTTAATC | -0.0537
ATAATAGA | -0.0959
CTGTAGTA | -0.0553
GATACGTA | 0.0223
AGGCAAAT | -0.203
GCCAGTAC | -0.155
AATATGCA | -0.0321
GGGCCACA | -0.126
CCACGAGG | -0.0913
TAATGTGA | -0.0206
GGACATGA | 0.0694
CCCCATAG | -0.241
CCCAGTCG | -0.0707
GCACCCAC | 0.00178
GACTTTCC | -0.1
AGAGCTTG | -0.19
AGACAGCA | -0.13
AATTACTA | 0.0404
ATATCGAG | 0.101

Set 3 — method: RNA Bind-n-Seq; molecule type: RNA; matrix: in vitro; concentration: 20 nM; notes: 6-mer, flanks averaged, single round; with: 150 mM LiCl; relative to: input library; reading: higher = stronger binding
Target: TAR DNA-binding protein 43, full length, His tag (TARDBP, Homo sapiens, UniProt Q13148, residues 1-414)
Oligonucleotide | 6-mer enrichment (R)
CUGAAG | 0.877
ACUGCU | 0.882
UGUGGG | 1.64
CAAUAA | 1.12
UGUUCA | 0.961
GCGUGA | 1.15
CAAUUG | 0.919

Set 4 — method: DHFR PCA, deep sequencing; matrix: yeast; with: (+)-ABA 710 µM; relative to: wild-type fitted maximum; reading: higher = stronger binding
Target: ABI1, truncated, D143A, DHFR fusion (Arabidopsis thaliana)
Notes: methotrexate growth selection, single substitutions
Starting sequence: PYL1, truncated, DHFR fusion (Arabidopsis thaliana); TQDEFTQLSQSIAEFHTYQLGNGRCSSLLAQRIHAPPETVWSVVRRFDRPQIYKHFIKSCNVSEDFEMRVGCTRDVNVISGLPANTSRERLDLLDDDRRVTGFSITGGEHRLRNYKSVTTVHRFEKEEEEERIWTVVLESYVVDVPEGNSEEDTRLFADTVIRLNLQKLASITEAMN
Variant | relative binding score
C25A | 100%
G107H | 103%
Q2M | 102%
G108T | 53.9%
D96P | 79.2%
D65I | 92%
T6F | 94.4%
V78F | 87.6%
N85C | 101%
G71E | 69.7%

Set 5 — method: RNA Bind-n-Seq; molecule type: RNA; matrix: in vitro; concentration: 365 nM; relative to: no-protein control; reading: higher = stronger binding
Target: RNA binding protein fox-1 homolog 2, RRM domain, GST-SBP tag (RBFOX2, Homo sapiens, UniProt O43251-10, residues 100-194)
Notes: natural RNA segment, single round, ends assumed
Residues (chain): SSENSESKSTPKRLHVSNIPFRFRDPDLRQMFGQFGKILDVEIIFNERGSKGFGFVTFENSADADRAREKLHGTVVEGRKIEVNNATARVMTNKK
Oligonucleotide | RBNS enrichment (R)
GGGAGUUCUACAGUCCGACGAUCAAAAAAAAAAAUCCCUAUUUAAGAUUCUGAAGGUGCUACCAUUAUUUUGCCACAGACUUUGAAGAAACUUUUGGAUGUGGGGCAUCAUCCGCAUCUUUCUCUCUCCUCCAUGGAAUUCUCGGGUGCCAA | 0.672
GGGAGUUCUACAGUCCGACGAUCACAGCAGCUUGUUACCAACAUUUUAAACCAAAUACUAAAAAGGUUUUUAAAGUCCUAGUAGAAAAAGUCAAAUACAUCUGCAUUUAAUUUAUGUCUGCAUAUUCUUCUAGUGGAAUUCUCGGGUGCCAA | 0.455
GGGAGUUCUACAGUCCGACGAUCGUAUUUGCUUUUUUGUUUUGGCUGAAAUUCUCCUGGAGGUCGGUAGGUUCAGCCAAGGUUUUAUAAGGCUGAUGUCAAUUUCUGUGUUGCCAAGCUCCAAGCCCCAUCUUUGGAAUUCUCGGGUGCCAA | 0.65
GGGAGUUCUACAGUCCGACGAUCUGGUCAAUGUAGAUUUCAAGUUGAAAGGCAGUCCCUUUAGUUGGGGGCUGUCCAGAGCUGCAGCAGGGCUUUGCACGGAAGGGGUGGCCCUGUUAGAGUUGCUUCUCCUCUGGAAUUCUCGGGUGCCAA | 1.67
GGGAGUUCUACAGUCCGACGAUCCUUGGGAGCGAAGAAGACUAGGCUUUUACUGUUCUCUGAUAUUCUAGAAGCAGACGAUCUCGGGCUCCAAGUAUUUCAGAAUGAUUUAAAAAGUCAUGCCACAGGAAGGGUGGAAUUCUCGGGUGCCAA | 0.31
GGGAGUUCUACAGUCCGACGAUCGCCAAGUGGAUGCUUUUCAGUAACAGUGAAGUGGAGUGAAUACCAAAUGUUUGCCCUGGUGGUUCCUAUCUCUUCAGGCAAACAUGGUCAGUAUUCUGUAAAGUUCCCCUUGGAAUUCUCGGGUGCCAA | 0.3
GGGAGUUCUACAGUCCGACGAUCAAUAGAGCAUUGGGAAAACUCUGAAAGAGACUGACAUUUUUCUCAACAGGAAUCCAUACUUAACAGUUCUGGCUUUCAUUAAAUUUUGCUCUUUGGUACCUGGGCCUUUUUGGAAUUCUCGGGUGCCAA | 0.342
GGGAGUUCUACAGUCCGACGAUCAAAUGAAAAUUAAUAAAUUCAAAAAUACUAAAAGUCACCUUCUUUGUCACGUUAGCAACCAGUUUCUACUAUUCUGUGCCCAUCCAGUGUCAAUAUCAUUGAUUUCUUUUUGGAAUUCUCGGGUGCCAA | 0.433
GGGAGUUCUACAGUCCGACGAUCAUCUAUAAAAUUUAGAACUCUAAUCCAUAAAGUUAGAAUUGAGCUAAUAGAGUGGUAUGACAUGGCACUAAAAAUAUAAAUUUUUGUUGUAAGUCAGGAUUGGAGUAAGCUGGAAUUCUCGGGUGCCAA | 0.76
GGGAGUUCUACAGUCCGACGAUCUUCUGUGUGAGUAAACCGAGAGUUACCAUGUGGCCUCCUUGUGUCUAAAUGUUCCCUCUGUUCAGCUUAGCAACCCUCCCCCCUUUGCUAUGUAACGCGAUCCCAUUUGCUGGAAUUCUCGGGUGCCAA | 0.56
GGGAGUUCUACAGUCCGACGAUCAGCAAAUGUCCCGCCCCUGGGGACAGUGCGCCCGCUCGCCCUUGGUUGUGCUGGGCAGCAUUUGUACAUACAUGCGCGCAUUUAGUUUGCAGUUAAUUCCUGCUGCGCUGUGGAAUUCUCGGGUGCCAA | 0.459
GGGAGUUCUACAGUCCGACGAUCAACAGACUUGGGUUUUCCCAAUACCUGACUAUACUUUUGUGAUUCAGUUCAGCUUAAAGAACGCCAGUUAGGCCGGGCGUGGUGGCGCACGUCUUUAAUCCCAGCACUUGUGGAAUUCUCGGGUGCCAA | 0.386

Excerpt of the above (set 1):
Variant | normalised enrichment score
LQLRRQLSHSEDS [F9H] | -0.153
LQLRRQLSFSELS [D12L] | 0.115
LQLLRQLSFSEDS [R4L] | -0.1
LQLRRQLSFSRDS [E11R] | 0.186
LQLRRQLSFEEDS [S10E] | 0.375
LQLGRQLSFSEDS [R4G] | -0.323
LQLRKQLSFSEDS [R5K] | 0.143
